{"data": "Results pooled from the literature", "organism": "Enterococcus faecalis", "note": "Protocols differ between the studies behind these lines. ± gives the spread as reported."}
{"Structure (SMILES)": "CNC(CC(C)C)C(=O)NC1C(=O)NC(CC(N)=O)C(=O)NC2C(=O)NC3C(=O)NC(C(=O)NC(C(=O)O)c4cc(O)cc(O)c4-c4cc3ccc4O)C(O)c3ccc(c(Cl)c3)Oc3cc2cc(c3OC2OC(CO)C(O)C(O)C2OC2CC(C)(NCc3ccc(-c4ccc(Cl)cc4)cc3)C(O)C(C)O2)Oc2ccc(cc2Cl)C1O (stereo not drawn)", "assay": "broth microdilution", "test system": "ATCC BAA-2573 VanA", "endpoint": "MIC", "value": "0.3 µg/mL"}
{"Structure (SMILES)": "CCN1CCNC1=[S+][Ag-3]([O][N+](=O)[O-])([P+](c1ccccc1)(c1ccccc1)c1ccccc1)[P+](c1ccccc1)(c1ccccc1)c1ccccc1", "test system": "MTCC 439, DMSO", "conditions": "0.1 mL of 50 mg/mL in 8 mm well, 18 to 24 h", "endpoint": "inhibition zone diameter", "value": "23 mm"}
{"Structure (SMILES)": "CN(C)CCCNCCCNC(=O)[C@@H]1NC(=O)[C@@H]2Cc3ccc(cc3)Oc3cc4cc(c3O)-c3ccc5c(c[nH]c5c3)C[C@@H](NC(=O)C(N)c3ccc(O)cc3)C(=O)N[C@H](c3ccc(O)cc3)C(=O)N[C@H]4C(=O)N[C@@H](C(=O)N2C)c2ccc(cc2)Oc2cc1ccc2O (stereo partly drawn)", "test system": "brain heart infusion medium", "endpoint": "MIC", "value": "16 µg/mL"}
{"Structure (SMILES)": "CC(CCC(=O)[O-])C1CCC2C3CCC4CC(O)CCC4(C)C3CC(O)C12C.C[N+](C)(C)CC(O)CC(=O)O (stereo not drawn)", "test system": "TISTR 927", "conditions": "1 mg per disc, 18 to 24 h, 37 °C, 6 mm disc", "endpoint": "inhibition zone diameter", "value": "9.8 ± 1.2 mm"}
{"Structure (SMILES)": "FC(F)(F)c1ccc2nc3c4cccnc4c4ncccc4c3nc2c1.[Cl-].[Cl-].[Ru+2].c1ccncc1.c1ccncc1.c1ccncc1.c1ccncc1", "test system": "VRE ATCC 51299", "conditions": "LED irradiation 470 nm", "endpoint": "MIC90", "value": "2 µM"}
{"Structure (SMILES)": "CC(=NNC(=N)N)c1nnn(-c2ccc(C#CC3(O)CCCCC3)cc2)c1C", "test system": "WI-38, ATCC 51299", "how to read": "reference: WI-38 IC50 over MIC", "endpoint": "selectivity index", "value": 8.78}
{"Structure (SMILES)": "[Ag+].[S-]c1ccccn1.c1ccc(P(c2ccccc2)c2ccccc2)cc1.c1ccc(P(c2ccccc2)c2ccccc2)cc1", "test system": "MTCC 439, DMSO", "conditions": "0.1 mL of 50 mg/mL in 8 mm well, 18 to 24 h", "endpoint": "inhibition zone diameter", "value": "13 mm"}
{"Structure (SMILES)": "Fc1cc2nc3c4cccnc4c4ncccc4c3nc2cc1F.[Cl-].[Cl-].[Ru+2].c1ccncc1.c1ccncc1.c1ccncc1.c1ccncc1", "test system": "VRE ATCC 51299", "conditions": "LED irradiation 470 nm", "endpoint": "MIC90", "value": "2 µM"}
{"Structure (SMILES)": "CC(CCC(=O)[O-])C1CCC2C3C(O)CC4CC(O)CCC4(C)C3CCC12C.C[N+](C)(C)CC(O)CC(=O)O (stereo not drawn)", "test system": "TISTR 927", "conditions": "1 mg per disc, 18 to 24 h, 37 °C, 6 mm disc", "endpoint": "inhibition zone diameter", "value": "7.7 ± 0.6 mm"}
{"note": "Repeated from above:"}
{"Structure (SMILES)": "CC(=NNC(=N)N)c1nnn(-c2ccc(C#CC3(O)CCCCC3)cc2)c1C", "test system": "WI-38, ATCC 51299", "how to read": "reference: WI-38 IC50 over MIC", "endpoint": "selectivity index", "value": 8.78}
